Assay results of several laboratories.
Every numbered part comes from another study and shows a few of its results, in no order.

Series 1
Target: Centromere-binding protein 1, full length, N-terminal tag (CBF1, Saccharomyces cerevisiae, UniProt P17106, residues 1-351)
UniProt P17106, sequence (whole entry, looked up): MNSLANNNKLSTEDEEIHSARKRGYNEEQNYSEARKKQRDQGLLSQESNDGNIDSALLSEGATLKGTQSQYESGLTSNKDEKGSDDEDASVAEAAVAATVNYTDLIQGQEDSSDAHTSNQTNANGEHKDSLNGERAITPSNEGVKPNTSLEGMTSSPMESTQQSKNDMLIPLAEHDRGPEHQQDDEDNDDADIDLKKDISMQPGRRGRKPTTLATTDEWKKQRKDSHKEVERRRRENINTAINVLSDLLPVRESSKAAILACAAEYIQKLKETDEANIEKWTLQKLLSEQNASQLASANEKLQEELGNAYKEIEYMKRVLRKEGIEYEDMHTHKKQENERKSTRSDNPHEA
Method: protein-binding microarray
Form: double-stranded DNA, one strand shown
Sample: in vitro
Tested at: 0.8 µM
Setting: whole 60-bp probe, no competitor
Direction: higher = stronger binding
Endpoint: fluorescence intensity
GAAGCCCCACGCAAGCATGTGCAGCAACGGACATAGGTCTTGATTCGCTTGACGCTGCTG: 632 a.u.
GAATCTGTGGACCCCCTCACCTTATACCACTACTAGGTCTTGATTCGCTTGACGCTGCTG: 532 a.u.
CTATCGCATTAGCACCTGAGTATATATCTGACATTCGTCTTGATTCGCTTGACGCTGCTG: 637 a.u.
CTATAATGGAAGTTACAGGTGACATAAAATCTATTCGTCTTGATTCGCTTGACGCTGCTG: 883 a.u.
CTAGTTAGAGGCTATAGCATCAGATATACAAAATTCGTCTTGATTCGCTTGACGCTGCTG: 519 a.u.
GAAGATATCACATACCACGAGATCTGCGCCTCGTAGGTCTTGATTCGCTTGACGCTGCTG: 747 a.u.
CTATGTTGGCTCACATACGTGCTCTTCGTATTTTTCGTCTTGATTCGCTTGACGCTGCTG: 490 a.u.
GAAATGTTTCAGCATGATGTCGGAGGTAGAAAATAGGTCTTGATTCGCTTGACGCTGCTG: 631 a.u.
GAATTTTTATGAGAAAACGTGAAAAAACTTCGTTAGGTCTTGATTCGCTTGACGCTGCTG: 640 a.u.
GAAGTGTTAATAATTAAGGTGACCTAAGCCCAGTAGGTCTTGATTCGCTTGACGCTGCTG: 539 a.u.
CTAGCGCTGAACTTTCACGTCAGATATATATACTTCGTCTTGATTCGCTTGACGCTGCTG: 532 a.u.
GAAGAGCGCGCTGGGCATGTGCAATTCACATTTTAGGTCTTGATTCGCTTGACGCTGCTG: 621 a.u.
CTAGTAAGCGGTGGTCATCACAACCATCAGCGGTTCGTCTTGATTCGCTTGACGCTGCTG: 484 a.u.
GAATCCGAGCTTCGCTGACACGTGGGAGGTGGGTAGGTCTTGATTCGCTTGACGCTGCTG: 3320 a.u.
CTAGTAAAAGCCGGGAACGTGCGTAACAATTTTTTCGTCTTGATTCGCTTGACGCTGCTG: 654 a.u.
CTAAAAAGTGCGCATCACGATTTATCATCCTTCTTCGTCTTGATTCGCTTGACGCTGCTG: 550 a.u.
GAATACTCTATACATCACGAAGTCTACGGCAACTAGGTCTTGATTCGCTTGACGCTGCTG: 548 a.u.
CTAATACTGTTGTATCACGACTAAGTAGTTGTCTTCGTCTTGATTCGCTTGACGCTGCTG: 559 a.u.

Series 2
Target: Interferon regulatory factor 5, full length, phosphomimetic (IRF5, Homo sapiens, UniProt Q13568-2, residues 1-514, S451D/S453D/S456D/S462D)
Method: protein-binding microarray
Form: double-stranded DNA, one strand shown
Sample: in vitro
Tested at: 940 nM top
Setting: 60-bp whole probe
Added: salmon DNA 0.4 mg/ml
Baseline: random background probes
Direction: higher = stronger binding
Endpoint: fitted relative affinity
All sequences stand within: GCCTAGCAC … GTCTTGATTCGCTTGACGCTGCTG
GACGGTTTCCTTTCCCTGCCGTGCTAG: 2.04 z-score
GACGATATGAGTTTCGAGACGTGCTAG: 3.38 z-score
GGCGGACTGGGACTGGGGACGTGCTAG: -0.775 z-score
CTTTAACTCATTCTCTGTTTGTGCTAG: 1.94 z-score
GGCGAACTGAGTATCGAGACGTGCTAG: 1.3 z-score
AGATGAAAAGTGAAGCCTAGGTGCTAG: -0.803 z-score
GAAGGTCTCGGTCTCGGGACGTGCTAG: 2.87 z-score
GTGTATATGGACGTCTGAAGGTGCTAG: -0.529 z-score
GACGATTTCAGTTCCGAGTCGTGCTAG: 1.85 z-score
GACGGACTGGGACTGGGAACGTGCTAG: -0.59 z-score
TCAGTTTTCAGCTGTTTTACTGTGCTA: 0.467 z-score
GACGGTCTCGGCATCGGGACGTGCTAG: 0.971 z-score
TCAATTTTCATTAACTGACTGTGCTAG: 0.675 z-score
TTTTTTTTTTTTTACTTCGGGTGCTAG: 0.886 z-score
TCATTTCTGGTTCCCATACTGTGCTAG: 1.01 z-score
GACGGTTTCCGACTGCTGACGTGCTAG: 0.542 z-score
TTAGATCTCAGTATAGATTAGTGCTAG: 0.281 z-score
TTCGAACTGAGTTTCGATTAGTGCTAG: 8.81 z-score
TTAGATATCGCGTTTCGATTAGTGCTA: 1.7 z-score
GACGGTTTAGGACTGGGGACGTGCTAG: 0.12 z-score

Series 3
Target: TATA-box-binding protein 1 (TBP1, Arabidopsis thaliana, UniProt P28147, residues 1-200, full length assumed)
Method: protein-binding microarray
Form: double-stranded DNA, one strand shown
Sample: in vitro
Tested at: not given
Setting: k-mer, scored over probes, only values ≥0.25
Direction: higher = stronger binding
Endpoint: E-score
Construct (chain): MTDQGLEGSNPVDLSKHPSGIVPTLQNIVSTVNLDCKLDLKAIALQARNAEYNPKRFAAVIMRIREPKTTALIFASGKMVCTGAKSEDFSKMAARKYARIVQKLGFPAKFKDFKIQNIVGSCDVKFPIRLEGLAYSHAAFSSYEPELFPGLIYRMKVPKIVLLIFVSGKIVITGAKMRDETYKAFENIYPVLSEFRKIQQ
CCTTTAA: 0.336
AAATACA: 0.378
ACAAATA: 0.277
ATATGGC: 0.264
TAGTAAA: 0.251
ATAGAAA: 0.275
ATAATAT: 0.452
ACTATAT: 0.425
GCAATTA: 0.26
AAATTTA: 0.381
ATATATG: 0.462

Series 4
Target: Sal-like protein 4, full length isoform B (SALL4, Homo sapiens, UniProt Q9UJQ4-2, residues 1-616)
Method: universal PBM
Form: double-stranded DNA, one strand shown
Sample: in vitro
Tested at: not given
Setting: 8-mer, flanks averaged, mean of replicates
Direction: higher = stronger binding
Endpoint: E-score
Target sequence (chain): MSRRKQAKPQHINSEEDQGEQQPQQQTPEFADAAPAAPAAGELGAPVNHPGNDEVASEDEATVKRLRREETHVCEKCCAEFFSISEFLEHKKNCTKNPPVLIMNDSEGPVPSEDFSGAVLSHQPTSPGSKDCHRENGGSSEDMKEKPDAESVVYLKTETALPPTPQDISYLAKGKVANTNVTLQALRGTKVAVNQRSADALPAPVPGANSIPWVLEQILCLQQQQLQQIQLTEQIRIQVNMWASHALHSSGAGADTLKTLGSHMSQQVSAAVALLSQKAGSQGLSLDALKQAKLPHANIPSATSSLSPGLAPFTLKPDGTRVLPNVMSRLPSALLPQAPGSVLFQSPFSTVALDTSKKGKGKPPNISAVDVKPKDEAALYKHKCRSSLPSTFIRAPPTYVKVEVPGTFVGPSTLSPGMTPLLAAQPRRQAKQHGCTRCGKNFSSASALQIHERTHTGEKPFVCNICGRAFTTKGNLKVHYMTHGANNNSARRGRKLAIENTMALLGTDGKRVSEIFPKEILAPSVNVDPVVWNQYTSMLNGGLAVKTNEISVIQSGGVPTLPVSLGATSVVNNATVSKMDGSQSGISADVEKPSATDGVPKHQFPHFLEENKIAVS
ATGCTATA: 0.242
CGTGCTAC: -0.179
ATTTTGTA: 0.272
CCGTATCG: -0.2
CGGCCTAG: -0.312
AACTGAAG: 0.0991
CCTGTAGA: 0.0753
ACCCCCAG: -0.147
ACTGGTAA: 0.141
AATAGGTC: 0.112
AACATTTA: 0.315
AAACTAAT: 0.299
ATTGCACA: 0.14
AACAGATT: 0.0768
ATCGCGTA: 0.0648
AAGCATCC: -0.0398
AGATCTGC: -0.0681
ATCTTTGC: 0.142
ACGCGAAT: 0.00274
CAGATCAA: -0.121
GTTCAGCA: -0.115
GTTCGCTA: 0.0852
GGATGGCC: -0.275
ACGCCAAG: -0.155
GGTGACAA: 0.0076

Series 5
Target: Histone acetyltransferase KAT6A, winged helix 2, GST fusion (KAT6A, Homo sapiens, UniProt Q92794, residues 85-181)
Method: protein binding microarray
Form: double-stranded DNA, one strand shown
Sample: in vitro
Tested at: not given
Setting: 8-mer, flanks averaged, mean of 2 arrays, mostly near background
Baseline: not given
Direction: higher = stronger binding
Endpoint: E-score
Construct (chain): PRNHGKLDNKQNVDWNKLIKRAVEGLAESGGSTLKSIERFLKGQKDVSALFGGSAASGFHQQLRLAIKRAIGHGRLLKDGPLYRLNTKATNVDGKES
AACAATAG: -0.137
AGAGTGCT: -0.093
AGGCCTCC: 0.0213
GAGAGCCC: -0.0877
ACCAGGAA: 7e-05
CTAATAAG: 0.0488
CCCTTCAC: -0.047
CCGCTCGC: 0.152
GGTCGACA: 0.0621
TAGCCAAA: 0.0423
ATCATAAC: 0.0926
AGTTGTCA: 0.14
AGGTGTTC: -0.107
ACCGGCAT: 0.0321
AATGCTTC: 0.0987
CTGAGTCC: -0.00314
AAATAGAT: -0.0492

Series 6
Target: RNA binding protein fox-1 homolog 2, RRM domain, GST-SBP tag (RBFOX2, Homo sapiens, UniProt O43251-10, residues 100-194)
Method: RNA Bind-n-Seq
Form: RNA
Sample: in vitro
Tested at: 365 nM
Setting: natural RNA segment, single round, ends assumed
Baseline: no-protein control
Direction: higher = stronger binding
Endpoint: RBNS enrichment (R)
Residues (chain): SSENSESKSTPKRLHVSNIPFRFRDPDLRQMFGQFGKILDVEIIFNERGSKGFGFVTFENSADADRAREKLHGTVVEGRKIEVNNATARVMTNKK
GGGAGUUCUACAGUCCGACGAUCCUUAUAGUAAUACAACUUACUAUUCUAGAUUCUUCUUAUCGCUGUGUUUUAUUUGCCAUGUAUCAUCUUUUGUUAUCAAGAGAAGUGUAUGAUGCUUGCUUUAUGCCAUAUGGAAUUCUCGGGUGCCAA: 0.354
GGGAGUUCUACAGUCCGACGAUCAGUGGCUUCUGUCUUUAUGUCUGUUGGCAUAUCAAAAUGGUUUCUGUUCCUAGAAAAGUAAUAACAUAUGCUUAUCUUUAUUCUUUUUCCAGGUGAUUUUGUUUUCAAAUUGGAAUUCUCGGGUGCCAA: 0.598
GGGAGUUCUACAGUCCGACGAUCGGAAUGAAACGGAGUGAACAUGAGCCCAGCUGAGAGAGGAGCAGGAAUGUGUGAAAAACAGCUGCUCUCCUUGUCCCAGCUUUGUGAUUGAGCCCUCUGUCUUGCUCUCUUGGAAUUCUCGGGUGCCAA: 0.255
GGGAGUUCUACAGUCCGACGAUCAUUAACAUCUUAUGGUCUGAAAAUGUGGGUUUUUAUUUGACACGUUUAAAUAAAAUGUUUCUAACUAAUGUUUUGAUUUUUGUGUUCAAUAUUAAUACUUUUCAAUUGGGUGGAAUUCUCGGGUGCCAA: 0.538
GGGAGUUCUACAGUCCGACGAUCCUCCAAAUACCAUUCAAGUGCCUCUUGUUGAAAGAUUCCUUCAUGGUGGAAGGGGGUGCAUGUAUGUGUUAGUGUUUGUGUGUGUGUGUGUGUCUGUCUGUUCGUCUGUCUGGAAUUCUCGGGUGCCAA: 11.4
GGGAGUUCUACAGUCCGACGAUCAGAACGUUUUUGUACAAUUUUUUUUCAUUUAAUUGGAAUGAUCUUCAGGUUUCUACAAAUAGGGUAAUUGUAAAUUUAAAGCAUUAGCAUUUAUUGGUGAAUAAUGUAUAUGGAAUUCUCGGGUGCCAA: 0.939
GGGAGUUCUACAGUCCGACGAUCGACCAGUUCUCCACCUGCUCUGACUGCUCAGGAGGCCUGGGUUCCCAUCUACCCUGUCACACUUCACCAGAAGGGAGAAGGUUGUUGCCAGUCACCAGGGAGCUCACUUUUGGAAUUCUCGGGUGCCAA: 0.246
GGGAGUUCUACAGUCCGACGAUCUGCAGUUUCCUGCUUUCUGCCCUGAACUUUGAAAUGCCUGUGUAAGGAAUCAAAAUGAACAUGAUCGUACUUUUUAAAAGUGAAAUAAUUAAGGAAGAAAGAAAGAGGAAUGGAAUUCUCGGGUGCCAA: 0.838
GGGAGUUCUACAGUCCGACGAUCAUCUGUGAGAUGCUGUGGCCCAGCUGACGAGCCCUAACGUCCCCAGAACCGAGUGCCUAUGAGGACAGUGUCCGCCCUGCCCUCCGCAACGUGCAGUCCCUGGGCACGGCUGGAAUUCUCGGGUGCCAA: 0.303
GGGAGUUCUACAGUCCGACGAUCUUCCACUCCCGCCCCUUCUCUUGCAGCCAAGUCAGACUCCAAGAGGCCCCACUGAGCUGCCCUCUCCAAAAACCAGAUUUUUUUUUGUAGUUUUAAUGCCAUUAGUUGUCUGGAAUUCUCGGGUGCCAA: 0.599
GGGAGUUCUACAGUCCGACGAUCCUUGGUCUGACUUGGCCAUGGGAGCCUUUCCCAACCCAGUGUGGAAGGGAGUCGGGAGGGAAGGAAGGGGUAGGCUCGCCCUGCUUUAUCCAUGCUAGAACCAUGGUAUCUGGAAUUCUCGGGUGCCAA: 0.461
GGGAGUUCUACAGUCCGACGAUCUUCAAUUUUUUAUUUUGUAGAUUUCUUUUAAAGUUUGAUUGAUUUCCCCGUUUUUUAAAUCUUUUCUAAUGUUCUGGGAAAGGGGGAGCAUAAACAGCACUUUCAGGCUAUGGAAUUCUCGGGUGCCAA: 0.667
